Measurements collected from several papers.
Each numbered part is a random draw from the data of one study; scales do not carry over between parts.
Sequence of UniProt Q9HBH9 (whole entry, looked up): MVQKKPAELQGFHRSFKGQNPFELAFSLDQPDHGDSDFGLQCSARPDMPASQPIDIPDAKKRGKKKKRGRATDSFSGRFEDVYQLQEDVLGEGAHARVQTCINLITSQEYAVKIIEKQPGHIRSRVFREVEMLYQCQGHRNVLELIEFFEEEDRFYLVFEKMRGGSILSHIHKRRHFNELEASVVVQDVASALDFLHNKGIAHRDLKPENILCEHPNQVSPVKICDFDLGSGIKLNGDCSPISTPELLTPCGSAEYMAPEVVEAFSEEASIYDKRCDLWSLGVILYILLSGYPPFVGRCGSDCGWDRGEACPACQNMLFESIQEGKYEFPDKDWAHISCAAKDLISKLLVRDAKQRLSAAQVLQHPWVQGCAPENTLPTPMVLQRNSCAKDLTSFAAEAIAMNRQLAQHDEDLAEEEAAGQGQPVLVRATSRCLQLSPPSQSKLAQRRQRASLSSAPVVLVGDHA
Sequence of UniProt Q2M2I8 (whole entry, looked up): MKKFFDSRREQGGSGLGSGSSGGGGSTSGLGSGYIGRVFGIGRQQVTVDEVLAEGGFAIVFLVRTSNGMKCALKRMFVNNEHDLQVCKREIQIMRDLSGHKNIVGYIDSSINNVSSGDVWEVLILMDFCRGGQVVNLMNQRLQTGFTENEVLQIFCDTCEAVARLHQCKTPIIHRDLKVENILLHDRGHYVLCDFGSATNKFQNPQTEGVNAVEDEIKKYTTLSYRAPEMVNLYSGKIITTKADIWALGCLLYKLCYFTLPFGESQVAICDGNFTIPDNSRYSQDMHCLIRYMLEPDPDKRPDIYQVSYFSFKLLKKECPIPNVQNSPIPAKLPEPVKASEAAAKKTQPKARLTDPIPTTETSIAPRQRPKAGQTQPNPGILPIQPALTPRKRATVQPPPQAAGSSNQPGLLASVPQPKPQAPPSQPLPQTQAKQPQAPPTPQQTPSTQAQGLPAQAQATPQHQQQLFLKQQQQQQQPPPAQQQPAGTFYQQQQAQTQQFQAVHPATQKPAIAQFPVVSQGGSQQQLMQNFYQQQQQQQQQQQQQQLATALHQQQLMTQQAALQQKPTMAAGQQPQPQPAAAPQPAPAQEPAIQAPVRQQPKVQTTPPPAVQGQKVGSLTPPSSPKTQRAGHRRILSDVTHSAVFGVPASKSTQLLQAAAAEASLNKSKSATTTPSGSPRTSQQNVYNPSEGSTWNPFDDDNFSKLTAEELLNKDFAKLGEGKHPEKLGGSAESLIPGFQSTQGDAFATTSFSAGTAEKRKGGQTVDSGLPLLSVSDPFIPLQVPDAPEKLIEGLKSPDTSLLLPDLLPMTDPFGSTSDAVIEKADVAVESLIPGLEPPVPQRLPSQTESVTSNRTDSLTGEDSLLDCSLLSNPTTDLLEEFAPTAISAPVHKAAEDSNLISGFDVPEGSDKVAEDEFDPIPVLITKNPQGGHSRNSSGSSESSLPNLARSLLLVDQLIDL
Sequence of UniProt Q6ZN16 (whole entry, looked up): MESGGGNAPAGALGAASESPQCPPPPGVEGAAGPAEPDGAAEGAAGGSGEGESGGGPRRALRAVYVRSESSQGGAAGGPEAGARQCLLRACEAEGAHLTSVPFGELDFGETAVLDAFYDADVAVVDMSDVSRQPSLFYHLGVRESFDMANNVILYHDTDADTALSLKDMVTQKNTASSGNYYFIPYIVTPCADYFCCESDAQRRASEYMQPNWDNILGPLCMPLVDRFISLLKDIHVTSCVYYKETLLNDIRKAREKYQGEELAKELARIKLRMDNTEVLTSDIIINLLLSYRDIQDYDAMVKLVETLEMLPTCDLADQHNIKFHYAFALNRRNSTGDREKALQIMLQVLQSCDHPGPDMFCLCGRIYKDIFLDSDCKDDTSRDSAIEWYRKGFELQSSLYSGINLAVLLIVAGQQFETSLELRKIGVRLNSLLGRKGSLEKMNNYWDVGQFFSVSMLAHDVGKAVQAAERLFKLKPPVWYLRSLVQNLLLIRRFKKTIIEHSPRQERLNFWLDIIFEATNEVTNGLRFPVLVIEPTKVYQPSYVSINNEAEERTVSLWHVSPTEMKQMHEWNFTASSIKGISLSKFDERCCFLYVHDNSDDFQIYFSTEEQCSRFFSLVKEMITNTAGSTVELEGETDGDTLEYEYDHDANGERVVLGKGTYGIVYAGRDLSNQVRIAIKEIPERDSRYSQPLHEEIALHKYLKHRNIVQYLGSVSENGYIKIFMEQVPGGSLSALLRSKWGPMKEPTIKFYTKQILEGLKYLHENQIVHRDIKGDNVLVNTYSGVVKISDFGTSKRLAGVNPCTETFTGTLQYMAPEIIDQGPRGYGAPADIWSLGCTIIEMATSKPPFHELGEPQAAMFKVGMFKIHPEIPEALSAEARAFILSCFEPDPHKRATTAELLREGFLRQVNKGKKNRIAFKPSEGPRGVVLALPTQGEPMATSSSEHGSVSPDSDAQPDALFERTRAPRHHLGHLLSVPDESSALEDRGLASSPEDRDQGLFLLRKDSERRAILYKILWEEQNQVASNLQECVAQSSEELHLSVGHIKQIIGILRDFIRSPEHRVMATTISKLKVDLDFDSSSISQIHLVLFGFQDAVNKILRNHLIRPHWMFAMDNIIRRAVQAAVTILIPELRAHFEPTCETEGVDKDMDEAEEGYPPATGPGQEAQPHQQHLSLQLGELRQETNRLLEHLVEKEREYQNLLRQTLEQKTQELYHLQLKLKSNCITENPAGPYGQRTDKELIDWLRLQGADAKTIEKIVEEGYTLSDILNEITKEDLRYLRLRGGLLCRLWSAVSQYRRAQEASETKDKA
Sequence of UniProt P11362 (whole entry, looked up): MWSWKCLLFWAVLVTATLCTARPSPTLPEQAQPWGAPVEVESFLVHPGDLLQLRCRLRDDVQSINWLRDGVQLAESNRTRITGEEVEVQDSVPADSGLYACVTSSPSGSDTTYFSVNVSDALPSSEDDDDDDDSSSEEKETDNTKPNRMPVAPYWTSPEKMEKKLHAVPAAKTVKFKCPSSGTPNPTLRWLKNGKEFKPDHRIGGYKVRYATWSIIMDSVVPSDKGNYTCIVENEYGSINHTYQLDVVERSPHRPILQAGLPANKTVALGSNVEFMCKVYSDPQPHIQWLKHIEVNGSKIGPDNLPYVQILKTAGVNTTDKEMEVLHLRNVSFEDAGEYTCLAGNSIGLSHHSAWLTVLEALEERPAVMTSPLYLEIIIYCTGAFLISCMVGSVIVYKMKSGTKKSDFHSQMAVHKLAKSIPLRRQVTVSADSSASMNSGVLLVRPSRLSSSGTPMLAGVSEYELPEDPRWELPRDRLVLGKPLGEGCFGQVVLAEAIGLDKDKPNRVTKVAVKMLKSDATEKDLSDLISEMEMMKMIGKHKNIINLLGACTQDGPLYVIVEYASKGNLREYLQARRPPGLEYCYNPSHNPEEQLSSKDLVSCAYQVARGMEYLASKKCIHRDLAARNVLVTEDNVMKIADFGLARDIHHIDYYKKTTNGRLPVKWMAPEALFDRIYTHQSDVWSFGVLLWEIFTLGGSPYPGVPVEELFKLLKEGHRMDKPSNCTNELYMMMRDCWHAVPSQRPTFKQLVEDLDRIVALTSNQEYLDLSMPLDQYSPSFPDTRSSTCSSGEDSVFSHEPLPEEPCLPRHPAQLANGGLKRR
Sequence of UniProt P45985 (whole entry, looked up): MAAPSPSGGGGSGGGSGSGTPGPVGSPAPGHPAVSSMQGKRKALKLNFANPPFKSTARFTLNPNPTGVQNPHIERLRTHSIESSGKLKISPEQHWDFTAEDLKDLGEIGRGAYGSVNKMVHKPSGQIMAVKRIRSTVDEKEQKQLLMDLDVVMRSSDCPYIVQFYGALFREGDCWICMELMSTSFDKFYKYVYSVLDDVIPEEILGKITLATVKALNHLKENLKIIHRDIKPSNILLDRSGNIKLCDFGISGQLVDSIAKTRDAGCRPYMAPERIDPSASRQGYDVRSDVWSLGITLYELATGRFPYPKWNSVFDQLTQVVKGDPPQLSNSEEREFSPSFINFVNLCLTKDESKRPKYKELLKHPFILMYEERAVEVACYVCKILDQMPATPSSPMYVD
Sequence of UniProt Q86YV6 (whole entry, looked up): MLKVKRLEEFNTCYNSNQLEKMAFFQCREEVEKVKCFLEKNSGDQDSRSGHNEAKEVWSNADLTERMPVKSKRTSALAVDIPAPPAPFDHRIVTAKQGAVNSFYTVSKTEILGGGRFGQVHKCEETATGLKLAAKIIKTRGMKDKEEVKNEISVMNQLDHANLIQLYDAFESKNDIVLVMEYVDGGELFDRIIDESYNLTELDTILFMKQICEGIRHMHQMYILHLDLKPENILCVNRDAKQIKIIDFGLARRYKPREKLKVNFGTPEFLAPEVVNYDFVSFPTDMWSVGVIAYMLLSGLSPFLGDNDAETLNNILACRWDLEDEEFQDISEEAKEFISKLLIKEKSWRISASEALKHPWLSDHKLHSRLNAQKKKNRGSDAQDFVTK

Block 1
Target: PABPC1L2, full length, GST fusion (mouse, UniProt A0ABA7IW68)
Method: RNAcompete
Form: RNA
Sample: in vitro
Tested at: 20 nM
Setting: 7-mer, probes averaged, single round
Baseline: mean of 7-mers
Direction: higher = stronger binding
Construct (chain): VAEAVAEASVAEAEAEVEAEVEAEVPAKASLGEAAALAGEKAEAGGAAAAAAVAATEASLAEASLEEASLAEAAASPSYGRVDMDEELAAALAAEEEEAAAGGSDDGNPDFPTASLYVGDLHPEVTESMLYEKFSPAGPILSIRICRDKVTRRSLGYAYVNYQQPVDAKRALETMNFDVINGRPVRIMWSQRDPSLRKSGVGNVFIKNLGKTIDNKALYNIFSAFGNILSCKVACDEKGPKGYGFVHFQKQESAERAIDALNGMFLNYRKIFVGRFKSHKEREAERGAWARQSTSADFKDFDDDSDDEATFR
| Sequence | 7-mer Z-score |
| --- | --- |
| GGUCAUG | 0.0388 |
| ACGGUUU | -0.291 |
| CUGAAUU | -0.19 |
| CUAGUUG | -0.257 |
| UUCGCAC | -0.425 |
| UUAUGGG | 0.0859 |
| ACGAAUG | -0.0754 |
| UUGACUA | -0.11 |

Block 2
Structure (SMILES): Cc1c(NC(=O)c2cc(C(N)=O)nc3cc(F)ccc23)c(C(F)(F)F)nn1Cc1ccc(C#N)cc1
Tested at: 1 µM
| target | effect on | method | remaining binding [%] |
| --- | --- | --- | --- |
| MAP/microtubule affinity-regulating kinase 4 (MARK4, Homo sapiens, UniProt Q96L34) | cell-free assay | competition with immobilised ligand | 100 |
| Dual specificity mitogen-activated protein kinase kinase 4 (MAP2K4, Homo sapiens, UniProt P45985) | cell-free assay | competition with immobilised ligand | 86 |
| Serine/threonine-protein kinase Nek3 (NEK3, Homo sapiens, UniProt P51956) | cell-free assay | competition with immobilised ligand | 74 |
| Fibroblast growth factor receptor 1 (FGFR1, Homo sapiens, UniProt P11362) | cell-free assay | competition with immobilised ligand | 100 |
| Inhibitor of nuclear factor kappa-B kinase subunit alpha (CHUK, Homo sapiens, UniProt O15111) | cell-free assay | competition with immobilised ligand | 65 |
| Myosin light chain kinase family member 4 (MYLK4, Homo sapiens, UniProt Q86YV6) | cell-free assay | competition with immobilised ligand | 90 |
| MAP kinase-interacting serine/threonine-protein kinase 2 (MKNK2, Homo sapiens, UniProt Q9HBH9) | cell-free assay | competition with immobilised ligand | 92 |
| AP2-associated protein kinase 1 (AAK1, Homo sapiens, UniProt Q2M2I8) | binding | – | 79 |
| Mitogen-activated protein kinase kinase kinase 15 (MAP3K15, Homo sapiens, UniProt Q6ZN16) | cell-free assay | competition with immobilised ligand | 100 |
| Mitogen-activated protein kinase kinase kinase 1 (MAP3K1, Homo sapiens, UniProt Q13233) | cell-free assay | competition with immobilised ligand | 65 |

Block 3
Target: Mitogen-activated protein kinase 8 (MAPK8, Homo sapiens, UniProt P45983)
Sequence of UniProt P45983 (whole entry, looked up): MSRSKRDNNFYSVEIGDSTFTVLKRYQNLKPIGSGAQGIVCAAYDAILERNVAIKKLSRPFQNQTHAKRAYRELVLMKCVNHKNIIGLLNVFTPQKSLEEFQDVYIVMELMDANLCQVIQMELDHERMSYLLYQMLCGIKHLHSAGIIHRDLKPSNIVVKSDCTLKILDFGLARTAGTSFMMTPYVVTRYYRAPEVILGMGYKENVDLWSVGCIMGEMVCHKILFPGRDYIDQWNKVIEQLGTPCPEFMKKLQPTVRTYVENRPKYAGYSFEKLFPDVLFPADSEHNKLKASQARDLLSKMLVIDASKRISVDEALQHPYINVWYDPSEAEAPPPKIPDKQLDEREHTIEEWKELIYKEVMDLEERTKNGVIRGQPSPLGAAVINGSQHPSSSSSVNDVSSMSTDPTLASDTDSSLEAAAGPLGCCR
Effect on: enzyme activity
Mode: inhibitor
Tested at: 0.5 µM
Baseline: control
| SMILES | remaining activity [%] |
| --- | --- |
| O=C(O)/C=C/c1cc(Br)c(Br)c(Br)c1Br | 86.8 |
| O=Nc1c(-c2c(O)[nH]c3ccccc23)[nH]c2ccccc12 | 101 |
| O=C1c2ccccc2-c2nc3nnnn3nc21 | 78.3 |
| CCN(CC)CCCCN1c2ccccc2Oc2ccc(Cl)cc21 | 89.7 |
| CCCCc1c(-c2ccc(O)cc2)[nH]c2nccnc12 | 81.9 |
| CC(C)N(CCC(=O)c1ccc2ccccc2c1)Cc1ccccc1 | 88 |
| NC(=O)c1cccc(-c2cc(Nc3ccc(OC(F)(F)F)cc3)ncn2)c1 | 90.3 |
| c1cc(-c2cnn3cc(-c4ccc(OCCN5CCCCC5)cc4)cnc23)ccn1 | 91.5 |
| N#C/C(=C(/N)SC1C=CC=CC1)c1cccc(C(O)c2ccncc2)c1 (centres unmarked) | 102 |
| COc1cc2c(Nc3ccc(Br)cc3F)ncnc2cc1OCC1CCN(C)CC1 | 93.7 |

Other studies, line by line
| Sequence | target | test | test system | setting | scale | measurement | result |
| --- | --- | --- | --- | --- | --- | --- | --- |
| AAAAAAAA (biotin) | Heterogeneous nuclear ribonucleoprotein R, RRM domains 1-3 (HNRNPR, Homo sapiens, UniProt O43390, residues 145-430) | protein domain microarray | RNA, in vitro | not given, poly(A) 8-mer RNA, whole probe, immobilized GST-fusion domains, most near background | baseline: GST loading signal, higher = stronger binding | signal ratio | 0.12 |

A few entries again (block 1):
| Sequence | 7-mer Z-score |
| --- | --- |
| UUCGCAC | -0.425 |
| UUAUGGG | 0.0859 |
| ACGAAUG | -0.0754 |
| UUGACUA | -0.11 |
